Experimental data pooled from the literature.
Every numbered part comes from another study and shows a few of its results, in no order.

Study 1
Target: Interferon regulatory factor 3, full length, phosphomimetic (IRF3, Homo sapiens, UniProt Q14653, residues 1-427, S386D/S396D/S398D/S402D/T404D/S405D)
Technique: protein-binding microarray
Form: double-stranded DNA, one strand shown
Matrix: in vitro
Concentration: 2540 nM top
Notes: 60-bp whole probe
Added: salmon DNA 0.4 mg/ml
Baseline: random background probes
Direction: higher = stronger binding
Constant ends, left off below: GCCTAGCAC … GTCTTGATTCGCTTGACGCTGCTG
Target sequence (chain): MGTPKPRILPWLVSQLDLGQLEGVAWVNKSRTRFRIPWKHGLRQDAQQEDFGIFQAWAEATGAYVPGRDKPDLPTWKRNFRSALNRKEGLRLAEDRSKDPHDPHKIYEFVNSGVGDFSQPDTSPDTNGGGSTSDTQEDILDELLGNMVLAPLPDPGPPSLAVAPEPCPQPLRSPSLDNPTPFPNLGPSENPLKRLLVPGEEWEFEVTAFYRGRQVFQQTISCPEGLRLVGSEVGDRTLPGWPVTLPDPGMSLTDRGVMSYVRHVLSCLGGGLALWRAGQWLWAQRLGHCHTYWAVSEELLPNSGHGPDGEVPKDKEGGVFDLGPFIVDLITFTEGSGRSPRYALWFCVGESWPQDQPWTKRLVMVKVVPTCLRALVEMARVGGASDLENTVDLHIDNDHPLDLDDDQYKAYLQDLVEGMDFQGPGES
Under “fitted relative affinity”, `AACGAACTGGGGTTTCGAGACGTGCTA` is recorded as 0.367 z-score.
`TTAGGACTGCTACTGATTTAGTGCTAG` — result for “fitted relative affinity”: -0.518 z-score.
`AACAATATATATATTATATAGTGCTAG` — result for “fitted relative affinity”: 0.271 z-score.
`AGCAGTTGGACCTCTCAGCCAGTGCTA` — result for “fitted relative affinity”: -1.07 z-score.
Under “fitted relative affinity”, `GACCGTTTCGACACTGGGGACGTGCTA` is recorded as 3.3 z-score.
`TCACCTTGATGTCTGGGACTGTGCTAG`: “fitted relative affinity” -0.0184 z-score.

Study 2
Target: Sal-like protein 4, full length isoform A (SALL4, Homo sapiens, UniProt Q9UJQ4, residues 1-1053)
Sequence of UniProt Q9UJQ4 (whole entry, looked up): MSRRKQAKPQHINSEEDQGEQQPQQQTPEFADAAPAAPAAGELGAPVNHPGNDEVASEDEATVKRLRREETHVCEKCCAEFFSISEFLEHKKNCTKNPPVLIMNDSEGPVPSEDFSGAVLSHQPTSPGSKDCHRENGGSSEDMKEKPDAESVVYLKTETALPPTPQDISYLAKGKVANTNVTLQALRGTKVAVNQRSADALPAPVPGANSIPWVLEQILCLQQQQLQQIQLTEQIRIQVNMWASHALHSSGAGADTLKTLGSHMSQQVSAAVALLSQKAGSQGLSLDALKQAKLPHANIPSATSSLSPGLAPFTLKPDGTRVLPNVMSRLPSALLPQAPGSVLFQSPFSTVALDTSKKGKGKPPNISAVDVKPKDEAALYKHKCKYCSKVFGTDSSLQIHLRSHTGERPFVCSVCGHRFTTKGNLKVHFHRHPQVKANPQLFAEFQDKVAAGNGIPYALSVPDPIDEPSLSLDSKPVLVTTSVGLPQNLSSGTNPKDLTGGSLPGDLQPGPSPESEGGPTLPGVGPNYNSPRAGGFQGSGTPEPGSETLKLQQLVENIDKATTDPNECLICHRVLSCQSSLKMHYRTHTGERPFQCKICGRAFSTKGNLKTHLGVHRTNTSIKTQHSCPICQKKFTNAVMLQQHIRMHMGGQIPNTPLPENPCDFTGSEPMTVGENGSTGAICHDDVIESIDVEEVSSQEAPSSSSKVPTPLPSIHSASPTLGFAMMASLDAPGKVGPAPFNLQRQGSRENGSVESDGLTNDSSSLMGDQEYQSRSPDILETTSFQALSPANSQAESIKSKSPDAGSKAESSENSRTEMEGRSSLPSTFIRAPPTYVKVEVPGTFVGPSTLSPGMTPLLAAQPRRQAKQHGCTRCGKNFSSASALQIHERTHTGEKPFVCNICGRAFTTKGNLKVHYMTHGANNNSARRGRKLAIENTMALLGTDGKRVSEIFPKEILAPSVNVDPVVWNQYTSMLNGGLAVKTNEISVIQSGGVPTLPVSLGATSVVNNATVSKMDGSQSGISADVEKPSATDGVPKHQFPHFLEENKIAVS
Technique: universal PBM
Form: double-stranded DNA, one strand shown
Matrix: in vitro
Concentration: 600 nM
Notes: 8-mer, flanks averaged, mean of replicates
Direction: higher = stronger binding
The E-score of `CGGTAATA` is reported as 0.258.
For `CATCGAGG`, the E-score was -0.104.
The E-score of `GTCCTATA` is reported as 0.0689.
For `CAGCCCCG`, the E-score was -0.356.
For `ATAGCATC`, the E-score was 0.198.
For `CTTGATAC`, the E-score was 0.113.

Study 3
Target: PABPC1L2, full length, GST fusion (mouse, UniProt A0ABA7IW68)
Technique: RNAcompete
Form: RNA
Matrix: in vitro
Concentration: 20 nM
Notes: 7-mer, probes averaged, single round
Baseline: mean of 7-mers
Direction: higher = stronger binding
Construct (chain): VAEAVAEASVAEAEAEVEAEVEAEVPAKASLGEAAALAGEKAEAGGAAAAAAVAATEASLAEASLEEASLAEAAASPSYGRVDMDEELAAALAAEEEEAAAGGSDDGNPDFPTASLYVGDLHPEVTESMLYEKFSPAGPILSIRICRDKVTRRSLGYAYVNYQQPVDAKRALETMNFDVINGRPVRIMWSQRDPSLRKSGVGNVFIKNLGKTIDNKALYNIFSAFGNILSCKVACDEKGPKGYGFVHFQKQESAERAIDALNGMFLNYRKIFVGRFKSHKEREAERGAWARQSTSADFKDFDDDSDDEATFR
`AAUGUAA` gave a 7-mer Z-score of 0.242.
With `GUGAAUA` the 7-mer Z-score was -0.05.
With `CCAGGGA` the 7-mer Z-score was 0.0823.
With `CCCUGUC` the 7-mer Z-score was -0.289.
The 7-mer Z-score of `UCUUACG` is reported as -0.271.
With `UGCGCGU` the 7-mer Z-score was -0.238.

Mixed results
`PhoQ, residues 284 288 289 292 302 303 SNSSNI` gave a fold induction of 0.64 (PhoP, residues 12 14 15 18 19 NIMAP (Escherichia coli, UniProt P23836); Sort-seq, item: YFP reporter; E. coli; PhoQ-PhoP variant library, added: 10 µM Mg2+; baseline: high Mg2+ state, higher = stronger signaling).

Some of these lines once more (study 3):
With `UGCGCGU` the 7-mer Z-score was -0.238.
